Measured values of several laboratories.
Parts stem from different laboratories: compare values within a part only.

Study 1
Target: Centromere-binding protein 1, full length, His-tagged (CBF1, Saccharomyces cerevisiae, UniProt P17106, residues 1-351)
UniProt P17106, sequence (whole entry, looked up): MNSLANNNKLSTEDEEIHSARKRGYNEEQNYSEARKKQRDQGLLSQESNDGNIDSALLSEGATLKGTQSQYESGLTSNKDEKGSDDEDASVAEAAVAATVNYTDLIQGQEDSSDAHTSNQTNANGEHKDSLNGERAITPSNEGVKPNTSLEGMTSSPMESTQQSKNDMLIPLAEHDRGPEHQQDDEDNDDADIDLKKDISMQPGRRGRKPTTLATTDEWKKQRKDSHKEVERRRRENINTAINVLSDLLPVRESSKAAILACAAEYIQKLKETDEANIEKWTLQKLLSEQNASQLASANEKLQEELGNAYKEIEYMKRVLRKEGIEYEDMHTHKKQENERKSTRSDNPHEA
Technique: competition protein-binding microarray
Molecule type: double-stranded DNA, one strand shown
Sample: in vitro
Tested at: 2 µM
Notes: whole 60-bp probe, lowest competitor level
Together with: Pho4 competitor, 0.05 µM
Reading: higher = stronger binding
Measurement: fluorescence intensity
All sequences stand within: … GTCTTGATTCGCTTGACGCTGCTG
TCATGTTCCTGACAGGGCGTGATGGACTTTACTATT: 102 a.u.
TGCGCAACAACTTGACTGGTGGGTGTATGTCTAGAA: 50.2 a.u.
CCTTGTCCAATTCAACACGCTCGATGAAAAAAATAA: 84.3 a.u.
AAATTACTAAGTTGATTAGTGGGTGACGCCGTATGA: 79 a.u.
ACAAAGAGAGATGAATCCGTGCGATCCATTGTAGAA: 52.3 a.u.
AACTTGTGCTTGAATCAAATGGTTACAGTGGACAGT: 66.8 a.u.
CGGGGTTAAGTTTTTCACGTGAGTTGCTTGCAGCAG: 923 a.u.
CTTTCCCGATCTTTCCACGTGTTTTTAGCACATTTG: 808 a.u.
CGTCCTAGCGATTGACATGTGGGTGCCATGAGGAAG: 100 a.u.
CGTCCTAGTGATTGTACCGTGGGTGCCATGAGGAAG: 87.2 a.u.
TCTCCACCTCTACGACCCGTGCGGAAGGTGGAAACC: 66.5 a.u.
CGCTTCAGGACAGTACACGTGATCCAGCATAAGATG: 7970 a.u.
ACGGGAATATGGTCTTCTGCGATAGCTAGTAGAGAA: 64.2 a.u.
TGCGCAACAACTTTCCACGTGTTTTTATGTCTAGAA: 1000 a.u.
GTCTTGTCTCATTGAGGGGTGGGTGTCCCCACTTCA: 68.7 a.u.
ACAAGCGGTTTTTTTTTCGTGGGTAAACATTATTTG: 84.4 a.u.
TGGAACAGCAATGCCACCGTGATGGTCCTTGACCAG: 57.4 a.u.
TACAGTTGGGTCCATCACATGCAAACATTTCTCCAA: 372 a.u.
AAGTCATAGAATCACCACGTGAAAAAAAAAAAAAAA: 764 a.u.
CGGGGTTAAGTTTGGCAAGTGGGTGGCTTGCAGCAG: 81.4 a.u.
AAATTACTAAGTTGCCAGGTGGGTGACGCCGTATGA: 60.9 a.u.
AAAGCGGTAATTTCCCACGTGTTTTCACATATCTAT: 1010 a.u.
TGAACGAAAAGTGTAGGCGTGCCAGAAATGTCAACA: 103 a.u.
AGATTCGAATTACCATCCGTGACGGACATCTTATTT: 75.2 a.u.
GACCTAAGTCAGTCAAATTGTACTATCCCTGATCCT: 70 a.u.

Study 2
Target: Ras GTPase-activating protein-binding protein 1, full length (G3BP1, Homo sapiens, UniProt Q13283)
UniProt Q13283, sequence (whole entry, looked up): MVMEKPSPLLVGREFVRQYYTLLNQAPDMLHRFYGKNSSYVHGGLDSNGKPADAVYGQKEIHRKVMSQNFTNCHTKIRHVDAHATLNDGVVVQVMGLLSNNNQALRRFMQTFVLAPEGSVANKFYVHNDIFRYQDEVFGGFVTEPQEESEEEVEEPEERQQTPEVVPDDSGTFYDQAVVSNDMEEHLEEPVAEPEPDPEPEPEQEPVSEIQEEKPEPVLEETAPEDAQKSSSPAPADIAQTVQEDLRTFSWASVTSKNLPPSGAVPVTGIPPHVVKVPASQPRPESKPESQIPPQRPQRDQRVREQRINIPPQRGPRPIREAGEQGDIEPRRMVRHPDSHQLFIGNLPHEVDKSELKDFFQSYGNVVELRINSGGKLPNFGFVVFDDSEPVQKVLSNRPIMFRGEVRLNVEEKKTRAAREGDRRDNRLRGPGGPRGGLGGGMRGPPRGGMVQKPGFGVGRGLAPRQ
Technique: RNA Bind-n-Seq
Molecule type: RNA
Sample: in vitro
Tested at: 200 nM
Notes: whole 134-nt RNA, ends assumed
Together with: 150 mM LiCl
Reference: input library
Reading: higher = stronger binding
Measurement: log2 enrichment
Library: 7-deaza-guanosine replaces G
All sequences stand within: GGGAGUUCUACAGUCCGACGAUC … UGGAAUUCUCGGGUGUCAAGG
CAAGUCCUGUGCUACACAUCGUAUGUACCGAAUCGGGGUUUGGGGUUUGGGUUUGGAAAGUAUUAUGUUACGCCGUUCGGAUCUGCACUU: -0.882
AGUCCUGUGCUACACAUCGUAUGUACCGAAUCGGGAGGGUUUUUGGGAAAAAAAGGGAAAGUAUUAUGUUACGCCGUUCGGAUCUGCACU: -0.657
CGGGAGGUGGAUUUUGUUUAUUUUUUUAGCUCAUUUCCAGGGGUGGGAAUUUUUUUUUAAUAUGUGUCAUGAAUAAAGUUGUUUUUGAAA: 0.248
AGUCCUGUGCUACACAUCGUAUGUACCGAAUCGGGGAAAAAGGGGAGGGGAAAGGGGAAAGUAUUAUGUUACGCCGUUCGGAUCUGCACU: 0.268
GGCACCCUUUGAAGGGGAGGAUGAAGAUGAACUCUUCCAAUCCAUCAUGGAACACAACGUAGCCUAUCCCAAGUCUAUGUCCAAGGAAGC: 0.172
AGUCCUGUGCUACACAUCGUAUGUACCGAAUCGGGGAGGGGUUUGGGGUUUUUGGGGAAAGUAUUAUGUUACGCCGUUCGGAUCUGCACU: -0.153
UGGCCCUGGUGGCAUGCGGGGAGGAAGAGGUGGCCUCAUGGAUCGUGGUGGUCCCGGUGGAAUGUUCAGAGGUGGCCGUGGUGGGGACAG: -0.0673
CUCAAGUCCUGUGCUACACAUCGUAUGUACCGAAUCGGGGCGGGGCGGCGGGGAAAGUAUUAUGUUACGCCGUUCGGAUCUGCACUUCCA: -0.348
CCUCAAGUCCUGUGCUACACAUCGUAUGUACCGAAUCGGUGGGUGGGUGGGGAAAGUAUUAUGUUACGCCGUUCGGAUCUGCACUUCCAG: 0.17
ACCAUGCAGGUGGGCAUCUUUGGGAAGUGGGUCAAGGGGGGGAUAGGGAGGGGGGUAACACUUUGGGAACAGGUGGUCCCAGGUCGUUUC: 0.287
CACAGACAACACGCACCCACACAGACACAGAGGGAAGGGGUUGGGAUGGGGACAGGGAAAACAGCAGGGCGGGGUAGGACCCCAGCCCCU: -0.581

Study 3
Target: Histone acetyltransferase KAT6A, both winged helices, GST fusion (KAT6A, Homo sapiens, UniProt Q92794, residues 1-181)
Technique: protein binding microarray
Molecule type: double-stranded DNA, one strand shown
Sample: in vitro
Tested at: not given
Notes: 8-mer, flanks averaged, mean of 2 arrays, mostly near background
Reference: not given
Reading: higher = stronger binding
Measurement: E-score
Residues (chain): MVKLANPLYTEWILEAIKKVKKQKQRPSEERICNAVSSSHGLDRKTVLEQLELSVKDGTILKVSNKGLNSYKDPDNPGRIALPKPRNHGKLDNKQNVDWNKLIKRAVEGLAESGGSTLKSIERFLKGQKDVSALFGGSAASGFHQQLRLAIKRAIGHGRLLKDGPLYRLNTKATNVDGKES
ACGCATGA: 0.116
AGGATCAT: -0.189
AGGCCGAA: -0.0473
AGATGAGA: -0.176
GGAGAGGA: -0.118
ACTGGGCG: -0.0267
GATGCGCC: 0.232
AATCCTTG: -0.0324
CTAGTGAG: -0.114
ACGACACT: -0.0469
CCCCCTGA: -0.163
ATAGCTCG: -0.005
CGCCGAAC: 0.283
CAACCTGG: -0.0848
CACGGGGG: 0.0964
ACCGTTAC: 0.0607
ACGAGCCC: -0.148
CAGTGAAA: 0.052
CAACTCCG: 0.0647
CTAACAAG: -0.0418
AAGACAAG: -0.0966
TAGTTCCA: -0.0389
TGGTGAAA: 0.0364
ATCTGGCA: -0.143
GGTATATA: -0.0427

Study 4
Target: RNA binding protein fox-1 homolog 2, RRM domain, GST-SBP tag (RBFOX2, Homo sapiens, UniProt O43251-10, residues 100-194)
Technique: RNA Bind-n-Seq
Molecule type: RNA
Sample: in vitro
Tested at: 365 nM
Notes: natural RNA segment, single round, ends assumed
Reference: no-protein control
Reading: higher = stronger binding
Measurement: RBNS enrichment (R)
All sequences stand within: GGGAGUUCUACAGUCCGACGAUC … UGGAAUUCUCGGGUGCCAA
Target sequence (chain): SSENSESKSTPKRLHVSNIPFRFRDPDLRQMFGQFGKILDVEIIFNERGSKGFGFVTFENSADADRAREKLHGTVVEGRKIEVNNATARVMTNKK
ACUUGAAAAGUGCUGGAGUAACAAAAUAUCUCAGUUGGACCAUCCUUAACUUGAUUGAACUGUCUAGGAACUUUACAGAUUGUUCUGCAGUUCUCUCUUCUUUUCCUCAG: 0.342
CUGCCAUCAUAAGUAUGGAGUAAGCUAAAGGAUGACCGUUAUGCCCGUGUAGACAUAGUGUACUCAGCAGAUGUAGAAUGUGAGCUCAUCAGCCUUGGCCUGGCUGAAAC: 1.38
AGUUAACCUUCUCACCGAAACCUUAGUUCAGGAUGGAUCAAGUGCUGUGACAGUGACAGCUCAUUUCUCAGGCCUGGUUUGCUUUGAUGUAUUACUCUUCUUCUUUUAAU: 0.424
CAAGCUGAGCUGCUAGGGAAUCAAGGUGAACUAGACCCGUCCUCAGGCCUCUGGCACCUGUUUCUAGCUCUCACUUCUACGGCAUGCUGUCCAAGGAACCAAAGGAGGCU: 0.439
ACAAAGGGAAGGCUGCUGUGUAGCUCUGUCCACUCUGAAUACCAAGUGUGUUGGGAAUUGCAUGCCAUCUCCACCCUGAGCCUGACCUUUCUGAGUGACAUGGGUGUGCC: 15.1
GUUCCUACCCUUGCUGAACAGCACAAGAUGGGUGGGUCGGGGGCUAUCAAGGCCACUGUGGUAGUGCUUCCCUGAGCAUUCAAUCCCUGGAUCCUGUAGGCCCUGGGAGG: 0.502
GUAAGUGAAAAAGCCGUGACCAACCGUAGUAAAGUAGAUGACAGCUGUUGUAUAUCAGACUUAAUUUUGUCAGCUGAUAGUAUAUAGUGACUGAUGAGUCAGUCACAGUU: 0.4
GCAGCACGGAUAUAACACUAUGCAUUAAAAGCACUUUUUGUAAUAAGUUUAAUAUCCUAAAAGGAAUGCCAAUUAAGUUUUGUUAACUGUGUCAUCAACUUAUCCUAGUA: 0.893
GUUUAACACGAUAUCAGCACAUUCCCUUGUCAUCAUCAAGGUGUUGGCUCAGAUUUAUUCUUAAUUGGAUGUUUAAAGCAUGUACUACCUUGUUACAGUUGGUUUAGUGU: 1.28
CUGUCCCUGUAUCCAGAGCUGGGCCACAGAGGUUUGUAGAGCCUGGGACAGGACACACCAGAGCUAAGGCCGCAUUGCUUUUGUCAAAGUCUCCUCCUCUGACUGGUUUC: 0.303
CCCCAACAUCCAGAGGCCAGAAGAAUUGGCAGCUGCCUACUUAAGGAAGCUUGGGUUUGAAGCCUGCCCAGACUGGGCUGGGAGUGUUCUCAGAGUCUCAACACAGGAAC: 0.269
UCACCCCGGAUGCCCGGGACCUUGCCAAAAAGUUUCUGAAGCGGAACCCCACUCAGCGAAUUGGGGGUGGCCUGGGAGAUGCUGCUGAUGUCCAGAGGCACCCCUUUUUC: 0.398

A few entries again (study 4):
ACUUGAAAAGUGCUGGAGUAACAAAAUAUCUCAGUUGGACCAUCCUUAACUUGAUUGAACUGUCUAGGAACUUUACAGAUUGUUCUGCAGUUCUCUCUUCUUUUCCUCAG: 0.342
CUGCCAUCAUAAGUAUGGAGUAAGCUAAAGGAUGACCGUUAUGCCCGUGUAGACAUAGUGUACUCAGCAGAUGUAGAAUGUGAGCUCAUCAGCCUUGGCCUGGCUGAAAC: 1.38
AGUUAACCUUCUCACCGAAACCUUAGUUCAGGAUGGAUCAAGUGCUGUGACAGUGACAGCUCAUUUCUCAGGCCUGGUUUGCUUUGAUGUAUUACUCUUCUUCUUUUAAU: 0.424
CAAGCUGAGCUGCUAGGGAAUCAAGGUGAACUAGACCCGUCCUCAGGCCUCUGGCACCUGUUUCUAGCUCUCACUUCUACGGCAUGCUGUCCAAGGAACCAAAGGAGGCU: 0.439
ACAAAGGGAAGGCUGCUGUGUAGCUCUGUCCACUCUGAAUACCAAGUGUGUUGGGAAUUGCAUGCCAUCUCCACCCUGAGCCUGACCUUUCUGAGUGACAUGGGUGUGCC: 15.1
GUUCCUACCCUUGCUGAACAGCACAAGAUGGGUGGGUCGGGGGCUAUCAAGGCCACUGUGGUAGUGCUUCCCUGAGCAUUCAAUCCCUGGAUCCUGUAGGCCCUGGGAGG: 0.502
GUAAGUGAAAAAGCCGUGACCAACCGUAGUAAAGUAGAUGACAGCUGUUGUAUAUCAGACUUAAUUUUGUCAGCUGAUAGUAUAUAGUGACUGAUGAGUCAGUCACAGUU: 0.4
GCAGCACGGAUAUAACACUAUGCAUUAAAAGCACUUUUUGUAAUAAGUUUAAUAUCCUAAAAGGAAUGCCAAUUAAGUUUUGUUAACUGUGUCAUCAACUUAUCCUAGUA: 0.893
GUUUAACACGAUAUCAGCACAUUCCCUUGUCAUCAUCAAGGUGUUGGCUCAGAUUUAUUCUUAAUUGGAUGUUUAAAGCAUGUACUACCUUGUUACAGUUGGUUUAGUGU: 1.28
